Measurements collected from several papers.
Each line is one published result; not all experiments were run side by side. ± gives the spread as reported.
U2AF2: U2AF2 148-342 (Homo sapiens, UniProt P26368)
B1: enzyme H476A (Methanosarcina mazei, UniProt Q8PVB1); chain MSEQRSVPLREHLLALKPCRHGGLIQETSETYGIPENEILDFSANFNPLGSPFDYPENGLNFEDIIKKSCGKLLEYPDNRYVEFREAAARFVGLGVTPQSIVPGNGSTEIVRLVVESVIEKGDKVLLPWPTFGEYEMQCRITGAEPVCPSQEEVNTLPDEVLEEAKILFICNPNNPTGKLRTREELKVLAERCREHKTLLYVDEAFIELSDPSQSVADLPAENNYVFVMRSLTKDFAIPGIRMGFGIAPPAMADILNTARLSWNLGAIANNTGIALLNIEGGIDSPYLKKAREMILKEGETLKAKIDRIRGFEAGEVNVNFILVDVSKFMLNSSELTARLAARGVLVRDCVSFHGLGKNYIRVAVRTEKENDRLIAAIGDVITEWGREQAKNELQHVIEKASEEGIGGRKTCEYYPCHFEGQNCTFCFCPFYPCENEKTGGKWIQSSRGGRVWSCVDCHLVHKKEIAQKILDCLMAEGDTDELVKVAWKEVMEPIL
B2: enzyme R85Q (Methanopyrus kandleri, UniProt Q8TWG5); chain MSKVAVIGATGRVGSTAAARLALLDCVNEVTLIARPKSVDKLRGLRRDILDSLAAAQKDAEITIGCERDDYVDADVIVMTAGIPQKPGQTRLDLTKDNAAIIKKYLEGVAEENPEAIVLVVTNPVDVLTYVALKVSGLPKNRVIGLGTHLDSMRFKVLIAKHFNVHMSEVHTRIIGEHGDTMVPVISSTSVGGIPVTRMPGWEDFDVEEAVREVKEAGQRIIETWGGSQFGPAQAITNLVRTILQDERRVLTVSAYLDGEIDGIRDVCIGVPARLGREGVLEIVPIELEEDEMRAFRRSVKVVKEATREAMEAISER
B3: enzyme (UniProt A0A097IUE6); chain TKRAMMATVSSLGIDKATGITKPSKVHRNLPYPEVFEHEQKNKEGEVTKNGTFCVSTGAFTGRSPKDKYFVHQSPSCDTLDWGKINVGVAPDVYKNIYEKAVKHYNENVDSMYVFDGYCGTSPKSRKNVRIITELAWQHHFAKNMFIRPDSEKEVENFNPDFTIINACKVLNKDYKELGLNSDVAVIFNVEEKMAVITGTWYGGEMKKGIFSMMNYWLPLDGIMAMHCSANKGKGGDTALFFGLSGTGKTTLSADPDRYLIGDDEHGWDDHGIFNFEGGCYAKTVNLSKDNEPEIYDAIKRDALLENVIIKSDGEPDYTDTSRTENTRVSYPIYHIDNHEPSGMGGHPTSIIFLTCDAFGVLPPVSRLSGGQAMYHFLSGYTAKVAGTERGVTEPTPNFSACFGAAFLTLHPTKYADLLQKKLDKHQTQCFLINTGWTGGGYGVGKRMSIKATRACVNAVLDGSINKANFTNDEVFGFEVPAELPEVPAQVLNPRAAWSDKEKYDNTRIKLAGMFKDNFKKFIKEGATDYSSYGPK
B4: enzyme (Bilophila wadsworthia, UniProt E5Y8P9); chain MKTVSEQMELARKAQAIVNDYTQEQIDEICLAIGWEVYEDENIAKLAKMAVEETGYGNVQSKIIKHKRKVGGVLHDIKGAKSVGLIERNEETGISKYAKPVGVVCAILPATNPTATCGGKAVGILKGRNAVIFKPSSRALKSTTEAINMMRAGLRKVGAPEDLIQVLEDPSREAITELMKVSDLIVATGSGQVVRAAYSSGTPAYGVGQGNACAIVAEDADVAEAAKMICGSKLFDYATSCSSENAVIPVEAVYDQFMAEMKKNGCYLVTGEDREKLKNHMWKPNAKGKIALNPDIIAKSAQVIADGAGISIPEGTDILLVEGMEPILGDKFHDEKISPVLTVYKAKDFKDAYRILVELTNLVGRGHSCGIHTYKHEYIEFLGEHMKSSRITVRQSMSAGNGGHPFNRMPSTATLGCGTWGGNSTTENVHWRHFINVTWVNEPVAPWTFTDEDMWGDFWKKYGK
B5: LAC4 (Kluyveromyces lactis, UniProt P00723); chain MSCLIPENLRNPKKVHENRLPTRAYYYDQDIFESLNGPWAFALFDAPLDAPDAKNLDWETAKKWSTISVPSHWELQEDWKYGKPIYTNVQYPIPIDIPNPPTVNPTGVYARTFELDSKSIESFEHRLRFEGVDNCYELYVNGQYVGFNKGSRNGAEFDIQKYVSEGENLVVVKVFKWSDSTYIEDQDQWWLSGIYRDVSLLKLPKKAHIEDVRVTTTFVDSQYQDAELSVKVDVQGSSYDHINFTLYEPEDGSKVYDASSLLNEENGNTTFSTKEFISFSTKKNEETAFKINVKAPEHWTAENPTLYKYQLDLIGSDGSVIQSIKHHVGFRQVELKDGNITVNGKDILFRGVNRHDHHPRFGRAVPLDFVVRDLILMKKFNINAVRNSHYPNHPKVYDLFDKLGFWVIDEADLETHGVQEPFNRHTNLEAEYPDTKNKLYDVNAHYLSDNPEYEVAYLDRASQLVLRDVNHPSIIIWSLGNEACYGRNHKAMYKLIKQLDPTRLVHYEGDLNALSADIFSFMYPTFEIMERWRKNHTDENGKFEKPLILCEYGHAMGNGPGSLKEYQELFYKEKFYQGGFIWEWANHGIEFEDVSTADGKLHKAYAYGGDFKEEVHDGVFIMDGLCNSEHNPTPGLVEYKKVIEPVHIKIAHGSVTITNKHDFITTDHLLFIDKDTGKTIDVPSLKPEESVTIPSDTTYVVAVLKDDAGVLKAGHEIAWGQAELPLKVPDFVTETAEKAAKINDGKRYVSVESSGLHFILDKLLGKIESLKVKGKEISSKFEGSSITFWRPPTNNDEPRDFKNWKKYNIDLMKQNIHGVSVEKGSNGSLAVVTVNSRISPVVFYYGFETVQKYTIFANKINLNTSMKLTGEYQPPDFPRVGYEFWLGDSYESFEWLGRGPGESYPDKKESQRFGLYDSKDVEEFVYDYPQENGNHTDTHFLNIKFEGAGKLSIFQKEKPFNFKISDEYGVDEAAHACDVKRYGRHYLRLDHAIHGVGSEACGPAVLDQYRLKAQDFNFEFDLAFE
B6: enzyme (Geobacillus stearothermophilus, UniProt P42328); chain MKAAVVEQFKEPLKIKEVEKPTISYGEVLVRIKACGVCHTDLHAAHGDWPVKPKLPLIPGHEGVGIVEEVGPGVTHLKVGDRVGIPWLYSACGHCDYCLSGQETLCEHQKNAGYSVDGGYAEYCRAAADYVVKIPDNLSFEEAAPIFCAGVTTYKALKVTGAKPGEWVAIYGIGGLGHVAVQYAKAMGLNVVAVDIGDEKLELAKELGADLVVNPLKEDAAKFMKEKVGGVHAAVVTAVSKPAFQSAYNSIRRGGACVLVGLPPEEMPIPIFDTVLNGIKIIGSIVGTRKDLQEALQFAAEGKVKTIIEVQPLEKINEVFDRMLKGQINGRVVLTLEDK
B7: PYCR2 R251C (Homo sapiens, UniProt Q96C36); chain MSVGFIGAGQLAYALARGFTAAGILSAHKIIASSPEMNLPTVSALRKMGVNLTRSNKETVKHSDVLFLAVKPHIIPFILDEIGADVQARHIVVSCAAGVTISSVEKKLMAFQPAPKVIRCMTNTPVVVQEGATVYATGTHALVEDGQLLEQLMSSVGFCTEVEEDLIDAVTGLSGSGPAYAFMALDALADGGVKMGLPRRLAIQLGAQALLGAAKMLLDSEQHPCQLKDNVCSPGGATIHALHFLESGGFCSLLINAVEASCIRTRELQSMADQEKISPAALKKTLLDRVKLESPTVSTLTPSSPGKLLTRSLALGGKKD
B8: GRHPR (Homo sapiens, UniProt Q9UBQ7); chain MRPVRLMKVFVTRRIPAEGRVALARAADCEVEQWDSDEPIPAKELERGVAGAHGLLCLLSDHVDKRILDAAGANLKVISTMSVGIDHLALDEIKKRGIRVGYTPDVLTDTTAELAVSLLLTTCRRLPEAIEEVKNGGWTSWKPLWLCGYGLTQSTVGIIGLGRIGQAIARRLKPFGVQRFLYTGRQPRPEEAAEFQAEFVSTPELAAQSDFIVVACSLTPATEGLCNKDFFQKMKETAVFINISRGDVVNQDDLYQALASGKIAAAGLDVTSPEPLPTNHPLLTLKNCVILPHIGSATHRTRNTMSLLAANNLLAGLRGEPMPSELKL

B1 (enzyme H476A) — kcat (Nc1ncnc2c1ncn2[C@@H]1O[C@H](COP(=O)(O)OP(=O)(O)OP(=O)(O)O)[C@@H](O)[C@H]1O; steady-state kinetics; pH 8.5, 25 °C, apparent, anoxic, together with: L-Thr 10 mM): 0.008 ± 0.001 s⁻¹
UUUACAGUU (ssRNA) — Kd (U2AF2; sequencing of bound RNA; RNA; motif only): 4.47 µM
B2 (enzyme R85Q) — kcat (CC(=O)C(=O)O; steady-state kinetics; pH 6, 60 °C, together with: 0.3 mM NADH): 60 s⁻¹
enzyme (Salvia miltiorrhiza, UniProt A0A0B4VRM0) — kcat (O=C(/C=C/c1ccc(O)cc1)O[C@H](Cc1ccc(O)c(O)c1)C(=O)O; steady-state kinetics; pH 7.5, 30 °C, not purified): 0.000167 s⁻¹
enzyme (Pseudomonas aeruginosa, UniProt Q9HTP2) — kcat (N=C(N)NCCCC=O; steady-state kinetics; pH 8, 30 °C, per site): 58 ± 3 s⁻¹
enzyme (Lactococcus lactis, UniProt Q9R7D7) — kcat (Nc1ncnc2c1ncn2[C@@H]1O[C@H](COP(=O)(O)OP(=O)(O)OP(=O)(O)O)[C@@H](O)[C@H]1O; steady-state kinetics; pH 8, 24 °C): 11 ± 0.5 s⁻¹
GUUCAUUCU (ssRNA) — Kd (U2AF2; sequencing of bound RNA; RNA; motif only): 8.27 µM
human G3BP1 — log2 fold change (PP6C (human); co-immunoprecipitation, IP-MS; CYB5R4 knockout cells; concentration not given; baseline: CYB5R4 knockout over parental): -1.27
enzyme (Pseudomonas aeruginosa, UniProt Q9I6F6) — kcat (N[C@H](COP(=O)(O)O)Cc1c[nH]cn1; steady-state kinetics; pH 7.8, 25 °C): 8.6 ± 0.2 s⁻¹
B3 (enzyme) — kcat (O=C(O)O; steady-state kinetics; pH 6.5, 25 °C): 61.3 ± 1.4 s⁻¹
acsA L233M (Pseudomonas chlororaphis) — kcat (O=C(O)CCC(F)(F)F; steady-state kinetics; pH 7): 0.123 ± 0.00167 s⁻¹
B4 (enzyme) — kcat (NC(=O)c1ccc[n+]([C@@H]2O[C@H](COP(=O)(O)OP(=O)(O)OC[C@H]3O[C@@H](n4cnc5c(N)ncnc54)[C@H](OP(=O)(O)O)[C@@H]3O)[C@@H](O)[C@H]2O)c1; steady-state kinetics; pH 9.5, apparent, cofactor varied): 38.9 ± 0.9 s⁻¹
B5 (LAC4) — kcat (O=[N+]([O-])c1ccccc1O[C@@H]1O[C@H](CO)[C@H](O)[C@H](O)[C@H]1O; steady-state kinetics; pH 6.5, 30 °C): 488 ± 12.7 s⁻¹
B6 (enzyme) — kcat (NC(=O)c1ccc[n+]([C@@H]2O[C@H](COP(=O)(O)OP(=O)(O)OC[C@H]3O[C@@H](n4cnc5c(N)ncnc54)[C@H](O)[C@@H]3O)[C@@H](O)[C@H]2O)c1; steady-state kinetics; pH 8, apparent, cofactor varied): 12.3 ± 0.16 s⁻¹
enzyme (UniProt A0A7S7NT01) — kcat (CC(=O)N[C@H]1[C@H](Oc2ccc([N+](=O)[O-])cc2)O[C@H](CO)[C@@H](O[C@@H]2O[C@H](CO)[C@H](O)[C@H](O)[C@H]2O)[C@@H]1O; steady-state kinetics; pH 6, 45 °C): 17.1 s⁻¹
B7 (PYCR2 R251C) — kcat (O=C(O)[C@@H]1CCC=N1; steady-state kinetics; pH 7.5, 37 °C, apparent, together with: NADH 500 µM): 3.2 ± 0.3 s⁻¹
putA (Escherichia coli, UniProt P09546) — kcat (CC1=CC(=O)c2ccccc2C1=O; steady-state kinetics; pH 7.4, 20 °C, together with: proline 200 mM): 3.5 ± 0.1 s⁻¹
B8 (GRHPR) — kcat (O=CC(=O)O; steady-state kinetics; pH 7.5, 37 °C, apparent, together with: NADPH 200 µM): 63 s⁻¹
gdh N97F (Bacillus subtilis) — kcat (NC(=O)c1ccc[n+]([C@@H]2O[C@H](COP(=O)(O)OP(=O)(O)OC[C@H]3O[C@@H](n4cnc5c(N)ncnc54)[C@H](O)[C@@H]3O)[C@@H](O)[C@H]2O)c1; steady-state kinetics; pH 8, 55 °C): 23.9 ± 0.883 s⁻¹

A few entries again:
enzyme (Pseudomonas aeruginosa, UniProt Q9HTP2) — kcat (N=C(N)NCCCC=O; steady-state kinetics; pH 8, 30 °C, per site): 58 ± 3 s⁻¹
enzyme (Pseudomonas aeruginosa, UniProt Q9I6F6) — kcat (N[C@H](COP(=O)(O)O)Cc1c[nH]cn1; steady-state kinetics; pH 7.8, 25 °C): 8.6 ± 0.2 s⁻¹
